Measured values pooled from the literature.
“And” joins repeats or separate records; there may be more than shown. ± gives the spread as reported.
CDK2: Cyclin-dependent kinase 2 (CDK2, Homo sapiens, UniProt P24941)
MBLAC2: MBLAC2 (Homo sapiens, UniProt Q68D91)
UniProt Q68D91, sequence (whole entry, looked up): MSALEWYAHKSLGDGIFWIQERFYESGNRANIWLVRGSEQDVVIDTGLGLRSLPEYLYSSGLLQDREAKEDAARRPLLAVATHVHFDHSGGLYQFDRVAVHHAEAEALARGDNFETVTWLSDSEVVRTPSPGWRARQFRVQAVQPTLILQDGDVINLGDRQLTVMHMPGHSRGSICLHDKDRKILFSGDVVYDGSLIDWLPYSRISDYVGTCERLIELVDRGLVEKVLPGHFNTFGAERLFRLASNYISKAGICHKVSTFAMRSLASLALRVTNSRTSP
Uncharacterized protein: Uncharacterized protein (Pelagibacter ubique, UniProt Q4FMA9)
PPIA: Peptidyl-prolyl cis-trans isomerase A (PPIA, Homo sapiens, UniProt P62937)
UniProt P62937, sequence (whole entry, looked up): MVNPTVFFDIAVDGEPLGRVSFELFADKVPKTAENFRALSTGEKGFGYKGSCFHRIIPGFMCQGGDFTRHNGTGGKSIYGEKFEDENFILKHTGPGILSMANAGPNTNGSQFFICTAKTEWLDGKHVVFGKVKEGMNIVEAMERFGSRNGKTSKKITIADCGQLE
WD repeat-containing protein 91 residues 392–747: WD repeat-containing protein 91, residues 392–747 (Homo sapiens, UniProt A4D1P6)
UniProt A4D1P6, sequence (whole entry, looked up): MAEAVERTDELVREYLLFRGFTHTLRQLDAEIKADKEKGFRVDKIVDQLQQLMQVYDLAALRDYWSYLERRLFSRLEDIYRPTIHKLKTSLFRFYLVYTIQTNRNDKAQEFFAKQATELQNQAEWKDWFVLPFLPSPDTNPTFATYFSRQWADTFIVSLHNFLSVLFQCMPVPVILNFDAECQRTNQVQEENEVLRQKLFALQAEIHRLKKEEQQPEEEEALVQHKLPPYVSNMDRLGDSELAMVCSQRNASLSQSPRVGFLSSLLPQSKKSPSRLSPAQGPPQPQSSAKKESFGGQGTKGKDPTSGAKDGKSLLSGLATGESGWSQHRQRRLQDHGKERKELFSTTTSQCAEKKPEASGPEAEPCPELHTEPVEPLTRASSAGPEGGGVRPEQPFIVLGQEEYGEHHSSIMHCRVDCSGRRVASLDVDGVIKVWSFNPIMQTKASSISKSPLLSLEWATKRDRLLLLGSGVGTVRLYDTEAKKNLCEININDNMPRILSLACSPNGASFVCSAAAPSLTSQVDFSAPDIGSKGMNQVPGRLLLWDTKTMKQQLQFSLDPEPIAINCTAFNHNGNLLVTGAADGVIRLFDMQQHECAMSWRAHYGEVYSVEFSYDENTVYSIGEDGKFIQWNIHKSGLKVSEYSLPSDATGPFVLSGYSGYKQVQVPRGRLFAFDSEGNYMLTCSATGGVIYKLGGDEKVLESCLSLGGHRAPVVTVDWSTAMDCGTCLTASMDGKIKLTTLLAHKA
HDAC1: Histone deacetylase 1 (HDAC1, Homo sapiens, UniProt Q13547)
UniProt Q13547, sequence (whole entry, looked up): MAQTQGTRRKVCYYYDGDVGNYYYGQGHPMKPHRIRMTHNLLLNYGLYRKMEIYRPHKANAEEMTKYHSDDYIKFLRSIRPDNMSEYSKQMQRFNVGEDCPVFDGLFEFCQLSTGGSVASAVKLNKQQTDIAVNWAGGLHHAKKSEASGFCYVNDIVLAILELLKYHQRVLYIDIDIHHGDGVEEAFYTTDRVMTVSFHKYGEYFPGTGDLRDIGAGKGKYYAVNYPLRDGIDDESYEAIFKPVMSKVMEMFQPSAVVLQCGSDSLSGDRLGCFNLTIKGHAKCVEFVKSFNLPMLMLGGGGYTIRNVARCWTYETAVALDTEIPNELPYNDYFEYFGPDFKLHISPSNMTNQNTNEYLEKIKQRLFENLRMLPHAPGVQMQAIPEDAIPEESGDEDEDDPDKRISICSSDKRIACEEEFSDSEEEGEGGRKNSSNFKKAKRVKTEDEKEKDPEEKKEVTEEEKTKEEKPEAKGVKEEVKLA
CDK2 with cyclin A: Cyclin-dependent kinase 2, with cyclin A (CDK2, Homo sapiens, UniProt P24941)
UniProt Q16774, sequence (whole entry, unmodified, looked up): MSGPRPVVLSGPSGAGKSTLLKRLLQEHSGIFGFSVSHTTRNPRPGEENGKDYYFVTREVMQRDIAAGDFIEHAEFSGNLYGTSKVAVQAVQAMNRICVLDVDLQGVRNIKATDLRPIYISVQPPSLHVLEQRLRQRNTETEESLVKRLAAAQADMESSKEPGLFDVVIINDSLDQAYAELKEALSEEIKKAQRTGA
UniProt Q5T1C6, sequence (whole entry, looked up): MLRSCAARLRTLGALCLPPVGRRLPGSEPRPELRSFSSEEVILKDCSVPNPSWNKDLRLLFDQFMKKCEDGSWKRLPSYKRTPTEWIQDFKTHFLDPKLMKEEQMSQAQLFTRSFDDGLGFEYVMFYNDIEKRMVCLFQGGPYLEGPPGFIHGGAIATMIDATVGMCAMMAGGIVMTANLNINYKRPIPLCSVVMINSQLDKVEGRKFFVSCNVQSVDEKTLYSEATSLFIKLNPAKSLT
UniProt Q9BZ95, sequence (whole entry, looked up): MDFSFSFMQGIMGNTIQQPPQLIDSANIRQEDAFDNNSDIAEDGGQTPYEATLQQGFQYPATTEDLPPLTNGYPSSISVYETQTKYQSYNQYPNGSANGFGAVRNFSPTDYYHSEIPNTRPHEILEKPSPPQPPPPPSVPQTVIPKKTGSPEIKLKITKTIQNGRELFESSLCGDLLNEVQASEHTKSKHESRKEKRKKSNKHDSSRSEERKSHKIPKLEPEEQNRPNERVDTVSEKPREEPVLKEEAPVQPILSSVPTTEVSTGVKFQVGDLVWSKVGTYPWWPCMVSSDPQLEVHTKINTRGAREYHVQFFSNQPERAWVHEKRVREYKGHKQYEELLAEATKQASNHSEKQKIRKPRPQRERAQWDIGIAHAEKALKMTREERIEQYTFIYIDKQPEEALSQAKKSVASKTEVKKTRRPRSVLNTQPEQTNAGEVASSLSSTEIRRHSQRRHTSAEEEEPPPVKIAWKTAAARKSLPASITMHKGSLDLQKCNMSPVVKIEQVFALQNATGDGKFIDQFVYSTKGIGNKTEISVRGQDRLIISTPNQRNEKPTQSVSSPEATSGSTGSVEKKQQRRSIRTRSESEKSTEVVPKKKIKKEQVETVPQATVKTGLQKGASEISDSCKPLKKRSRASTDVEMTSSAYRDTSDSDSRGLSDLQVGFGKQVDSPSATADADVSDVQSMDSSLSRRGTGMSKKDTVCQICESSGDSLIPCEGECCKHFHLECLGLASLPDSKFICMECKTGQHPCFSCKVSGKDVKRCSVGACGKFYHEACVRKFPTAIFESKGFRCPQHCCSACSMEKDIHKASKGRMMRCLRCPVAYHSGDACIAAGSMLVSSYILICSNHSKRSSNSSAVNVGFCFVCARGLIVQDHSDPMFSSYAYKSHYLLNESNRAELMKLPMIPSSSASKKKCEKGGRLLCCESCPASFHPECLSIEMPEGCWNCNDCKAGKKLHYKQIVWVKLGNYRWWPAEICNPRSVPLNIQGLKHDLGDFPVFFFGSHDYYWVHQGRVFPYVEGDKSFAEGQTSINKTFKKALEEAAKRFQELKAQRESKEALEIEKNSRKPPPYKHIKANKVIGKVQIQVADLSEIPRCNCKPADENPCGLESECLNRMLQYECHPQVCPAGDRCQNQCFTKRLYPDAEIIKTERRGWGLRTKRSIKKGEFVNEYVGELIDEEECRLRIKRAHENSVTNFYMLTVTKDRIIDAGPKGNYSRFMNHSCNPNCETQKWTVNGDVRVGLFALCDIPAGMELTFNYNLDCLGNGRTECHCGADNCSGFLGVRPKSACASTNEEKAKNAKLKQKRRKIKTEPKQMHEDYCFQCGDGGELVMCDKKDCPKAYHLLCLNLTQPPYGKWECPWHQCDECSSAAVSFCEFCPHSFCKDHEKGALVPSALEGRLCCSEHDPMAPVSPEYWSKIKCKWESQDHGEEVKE
UniProt P48426, sequence (whole entry, looked up): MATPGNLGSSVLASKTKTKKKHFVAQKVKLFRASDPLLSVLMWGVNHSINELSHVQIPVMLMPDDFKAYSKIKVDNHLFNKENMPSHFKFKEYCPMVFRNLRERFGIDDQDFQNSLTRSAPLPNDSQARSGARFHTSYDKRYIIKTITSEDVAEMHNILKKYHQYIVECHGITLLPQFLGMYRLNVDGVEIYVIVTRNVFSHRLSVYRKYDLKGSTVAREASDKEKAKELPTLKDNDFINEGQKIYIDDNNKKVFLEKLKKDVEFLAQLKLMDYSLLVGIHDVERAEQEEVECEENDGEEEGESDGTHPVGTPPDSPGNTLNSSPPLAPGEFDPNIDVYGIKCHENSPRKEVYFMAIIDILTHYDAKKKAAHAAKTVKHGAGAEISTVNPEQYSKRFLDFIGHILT
UniProt P52790, sequence (whole entry, looked up): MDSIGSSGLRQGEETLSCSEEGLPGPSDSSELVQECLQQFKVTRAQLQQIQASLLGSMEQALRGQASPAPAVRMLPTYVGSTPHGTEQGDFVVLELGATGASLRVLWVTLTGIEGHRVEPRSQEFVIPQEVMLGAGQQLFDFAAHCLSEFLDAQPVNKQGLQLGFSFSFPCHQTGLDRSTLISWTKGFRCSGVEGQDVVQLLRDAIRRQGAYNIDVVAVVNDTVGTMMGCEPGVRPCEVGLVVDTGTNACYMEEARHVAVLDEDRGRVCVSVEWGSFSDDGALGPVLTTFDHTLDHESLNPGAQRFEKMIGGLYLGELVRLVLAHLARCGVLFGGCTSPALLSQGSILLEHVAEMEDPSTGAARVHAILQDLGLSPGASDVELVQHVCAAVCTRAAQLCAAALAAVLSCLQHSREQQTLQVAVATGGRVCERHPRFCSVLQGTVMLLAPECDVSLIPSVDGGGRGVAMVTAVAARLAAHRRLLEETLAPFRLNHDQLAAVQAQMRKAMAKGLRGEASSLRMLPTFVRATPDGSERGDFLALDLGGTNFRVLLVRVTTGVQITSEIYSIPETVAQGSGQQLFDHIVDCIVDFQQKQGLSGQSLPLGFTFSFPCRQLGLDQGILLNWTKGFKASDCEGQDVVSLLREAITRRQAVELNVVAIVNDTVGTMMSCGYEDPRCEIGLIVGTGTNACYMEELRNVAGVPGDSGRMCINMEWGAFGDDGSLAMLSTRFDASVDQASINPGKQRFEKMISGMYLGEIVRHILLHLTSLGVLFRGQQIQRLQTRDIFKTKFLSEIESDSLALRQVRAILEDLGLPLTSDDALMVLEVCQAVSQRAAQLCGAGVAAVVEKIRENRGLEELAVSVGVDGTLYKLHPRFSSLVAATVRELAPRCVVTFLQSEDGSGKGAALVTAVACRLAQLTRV

| Structure (SMILES) | target | assay | system | setting | Kd |
| --- | --- | --- | --- | --- | --- |
| Cc1cc(C)c(S(=O)(=O)N(C)CC(=O)N2CCC(C(N)=O)CC2)c(C)c1 | CDK2 | binding | – | – | > 100 µM |
| O=C(CCCCCCNC(=O)c1cnc(N(c2ccccc2)c2ccccc2)nc1)NO | MBLAC2 | inhibitor, competition pulldown | SW620 and MV4-11 lysate | 1 h | 1.52 µM |
| O=S(=O)(O)CCO | Uncharacterized protein | binding, isothermal titration calorimetry | Candidatus Pelagibacter ubique | with: CaCl2 10 mM | 0.391 ± 0.151 µM |
| CC1=C(C)C(=O)c2ccccc2C1=O | Reaction center protein L chain, QB site (pufL, Cereibacter sphaeroides, UniProt P0C0Y8) | QB site binding, competitive inhibitor | – | – | > 100 µM |
| O=C(O)CCN1C(=O)C(=Cc2ccc(F)cc2)SC1=S | PPIA | HDX MALDI-MS | – | – | > 40 µM |
| OC[C@H]1OC(O)[C@H](O)[C@@H](O)[C@@H]1O (stereo partly drawn) | Hexokinase-3, N-terminal domain (HK3, Homo sapiens, UniProt P52790) | binding, intrinsic tryptophan fluorescence | – | room temperature | 3200 ± 400 µM |
| COc1c(C#N)cccc1CC(=O)Nc1ccc2c(c1)CCCN2C(=O)c1ccccc1 | WD repeat-containing protein 91 residues 392–747 | SPR | – | – | 7.3 µM and 7.2 µM |
| COc1cc([N+](=O)[O-])ccc1N1C(=O)C2C3C=CC(C)(O3)C2C1=O (stereo not drawn) | PPIA | HDX MALDI-MS | – | – | 4 µM |
| Nc1ncnc2c1ncn2[C@@H]1O[C@H](CO[P@](=O)(O)O[P@](=O)(O)O[P@@](=O)(O)S)[C@@H](O)[C@H]1O | GUK1 (Homo sapiens, UniProt Q16774, N171A) | binding, ITC | – | 25 °C, with: GMP | > 400 µM |
| O=C(CSc1nnc(-c2ccc([N+](=O)[O-])cc2)n1-c1ccccc1)N1CCOCC1 | CDK2 | binding | – | – | > 100 µM |
| CCCCOc1ccc(CC(=O)NO)cc1 | HDAC1 | inhibitor, competition pulldown | SW620 and MV4-11 lysate | 1 h | > 30.2 µM |
| O=C1c2ccccc2C(=O)N1CCCc1nc(-c2cccc([N+](=O)[O-])c2)no1 | CDK2 with cyclin A | – | – | – | > 100 µM |
| Nc1ncnc2c1ncn2[C@@H]1O[C@H](COP(=O)(O)OP(=O)(O)O)[C@@H](O)[C@H]1O | CKMT1A (Homo sapiens, UniProt P12532, E265Q) | microscale thermophoresis | – | pH 7.0, E227Q mutant, no substrate | 33 ± 18 µM |
| O=S(=O)(O)C[C@@H](O)CO | Uncharacterized protein | isothermal titration calorimetry | Candidatus Pelagibacter ubique | with: CaCl2 10 mM | 2.72 µM and 1.81 µM |
| Nc1ccccc1NC(=O)c1ccc(CNC(=O)OCc2cccnc2)cc1 | MBLAC2 | inhibitor, competition pulldown | SW620 and MV4-11 lysate | 1 h | > 30.2 µM |
| N=C(N)SCc1ccc(CSC(=N)N)s1 | VPS26A/VPS35/VPS29 (Homo sapiens, UniProt O75436+Q96QK1+Q9UBQ0) | binding | – | – | 18.2 ± 5 µM |
| CN(C)CCNS(=O)(=O)c1ccc(N/C=C2\C(=O)Nc3ccccc32)cc1 | CDK2 | average of ITC, Octet and Thermofluor | – | untagged protein | 3.38 µM |
| [N-]=[N+]=NCC1OC(OC2C(N)CC(N)C(OC3OC(CN)C(O)C(O)C3O)C2O)C(O)C(N)C1O (stereo not drawn) | RNA with DM2 repeats | RNA binding, fluorescence titration | – | 1 h, room temperature, 12 repeat copies | 0.68 ± 0.083 µM |
| O=C(C[C@@H](C(F)F)n1ccc(F)n1)N1CCC(O)(Cn2cnc3c(cnn3-c3ccc(F)cc3)c2=O)CC1 | USP7 (Homo sapiens, UniProt Q93009, V517Y) | isothermal titration calorimetry | – | USP7 V517Y | 1.12 ± 0.362 µM |
| CCCCc1nc2cc(/C=C/C(=O)NO)ccc2n1CCN(CC)CC | MBLAC2 | inhibitor, competition pulldown | SW620 and MV4-11 lysate | 1 h | 0.544 µM |
| O=C(CC1OCCN(Cc2ccccc2)C1=O)Nc1ccc2c(c1)OCCO2 (stereo not drawn) | CDK2 with cyclin A | – | – | – | > 100 µM |

| Structure (SMILES) | target | assay | system | setting | Kd |
| --- | --- | --- | --- | --- | --- |
| C[N+](C)(C)CCC(=O)c1cccc2ccccc12 | PPIA | HDX MALDI-MS | – | – | 4 µM |
| CC[C@H](C)[C@H](NC(=O)[C@H](CC(C)C)NC(=O)[C@H](Cc1ccc(OP(=O)(O)O)cc1)NC(=O)[C@H](CCC(=O)O)NC(=O)[C@H](CC(=O)O)NC(=O)[C@H](C)NC(=O)[C@H](CC(=O)O)NC(=O)[C@@H](NC(=O)[C@@H](NC(=O)[C@H](CC(=O)O)NC(=O)[C@H](CC(=O)O)NC(=O)[C@H](CCSC)NC(=O)c1ccc2c(c1)C(=O)OC21c2ccc(N(C)C)cc2Oc2cc(N(C)C)ccc21)C(C)C)C(C)C)C(=O)N1CCC[C@H]1C(=O)N[C@@H](CCC(N)=O)C(=O)N[C@@H](CCC(N)=O)C(=O)NCC(=O)N[C@@H](Cc1ccccc1)C(=O)N[C@@H](CC(=O)O)C(=O)O | 1-phosphatidylinositol 4,5-bisphosphate phosphodiesterase gamma-1, SH2 domains (PLCG1, Homo sapiens, UniProt P19174) | binding | – | – | 0.794 µM |
| CN1CCN(C(=O)c2ccccc2N(Cc2ccccc2)S(C)(=O)=O)CC1 | CDK2 with cyclin A | – | – | – | > 100 µM |
| O=C1COc2cc(C(=O)N(Cc3ccc(C(=O)Nc4ccncn4)cc3)C3CC3)ccc2N1 | Histone-lysine N-methyltransferase NSD3, PWWP1 domain (NSD3, Homo sapiens, UniProt Q9BZ95) | binding, SPR | – | – | > 30 µM |
| COc1ccc(-c2cncc(C(=O)N[C@@H]3CCc4c(C#N)cccc43)c2)c(C)c1 | WD repeat-containing protein 91 residues 392–747 | SPR | – | – | 8.4 µM and 8.2 µM |
| O=C(NO)c1cnc(NC2(c3ccccc3)CC2)nc1 | MBLAC2 | inhibitor, competition pulldown | SW620 and MV4-11 lysate | 1 h | > 30.2 µM |
| O=C(O)CN1CCN(CC(=O)O)CCN(CC(=O)O)CCN(CC(=O)O)CC1 | calcium ion | isothermal titration calorimetry | – | – | < 0.1 µM |
| CC(C)(COP(=O)(O)OP(=O)(O)OC[C@H]1O[C@@H](n2cnc3c(N)ncnc32)[C@H](O)[C@@H]1OP(=O)(O)O)[C@@H](O)C(=O)NCCC(=O)NCCS | Acyl-coenzyme A thioesterase THEM4 (THEM4, Homo sapiens, UniProt Q5T1C6) | competitor, competition MS pulldown | SW-620 cell lysate | with: photo-immobilized beads | 16.1 µM |
| CC(=O)N[C@H]1[C@H](O[C@H]2[C@H](O)[C@@H](NC(C)=O)[C@H](O[C@H]3[C@H](O)[C@@H](NC(C)=O)[C@H](O[C@H]4[C@H](O)[C@@H](NC(C)=O)C(O)O[C@@H]4CO)O[C@@H]3CO)O[C@@H]2CO)O[C@H](CO)[C@@H](O[C@@H]2O[C@H](CO)[C@@H](O[C@@H]3O[C@H](CO)[C@@H](O[C@@H]4O[C@H](CO)[C@@H](O[C@@H]5O[C@H](CO)[C@@H](O)[C@H](O)[C@H]5NC(C)=O)[C@H](O)[C@H]4NC(C)=O)[C@H](O)[C@H]3NC(C)=O)[C@H](O)[C@H]2NC(C)=O)[C@@H]1O (stereo partly drawn) | uncharacterized protein (Medicago truncatula, UniProt G7JRT6) | binding | – | – | 171 µM |
| CC[C@H](CO)Nc1nc(NCc2ccc(-c3ccccn3)cc2)c2ncn(C(C)C)c2n1 | PIP4K2A (Homo sapiens, UniProt P48426) | binding, competition affinity chromatography | SH-SY5Y cell extract | – | 8.68 µM |
| N#Cc1cccc2c1CC[C@H]2NC(=O)c1ccc(-c2ccco2)[nH]1 | WD repeat-containing protein 91 residues 392–747 | SPR | – | – | 13 µM and 5.2 µM |
| CCCC(CCC)C(=O)O | HDAC1 | inhibitor, competition pulldown | SW620 and MV4-11 lysate | 1 h | 523 µM |
| CC(C)N(CCC(=O)c1ccc2ccccc2c1)Cc1ccccc1 | PPIA | HDX MALDI-MS | – | – | 4 µM |
| O=C(/C=C/c1cccc(S(=O)(=O)Nc2ccccc2)c1)NO | MBLAC2 | inhibitor, competition pulldown | SW620 and MV4-11 lysate | 1 h | > 30.2 µM |
| OC[C@H]1OC(O)[C@H](O)[C@@H](O)[C@@H]1O (stereo partly drawn) | Interferon regulatory factor 6 (IRF6, Homo sapiens, UniProt O14896, N106A) | microscale thermophoresis | – | – | not detected |
| O=S(=O)(NCCSc1ccccn1)c1ccc(Br)cc1 | CDK2 with cyclin A | – | – | – | > 100 µM |
| N#Cc1cccc2c1CC[C@H]2NC(=O)c1ccc(S(=O)(=O)NCc2ccco2)cc1 | WD repeat-containing protein 91 residues 392–747 | SPR | – | – | 8.7 µM and 9 µM |
| CCc1ccccc1NC(=O)CSc1nnc(-c2cccc(OC)c2)n1C | CDK2 with cyclin A | – | – | – | > 100 µM |
| COc1ccc([C@H]2Sc3ccccc3N(CCN(C)C)C(=O)[C@H]2OC(C)=O)cc1 | cone cGMP-gated channel Ictalurus punctatus | channel current, blocker, inside-out patch clamp | – | pH 7.6, +30 mV, 120 mM NaCl, low divalent, with: 1 mM cGMP | 8.7 ± 9.8 µM |
| O=C(/C=C/c1ccc(CN(CCO)CCc2c[nH]c3ccccc23)cc1)NO | MBLAC2 | inhibitor, competition pulldown | SW620 and MV4-11 lysate | 1 h | 2.09 µM |
| Nc1nc2c(ncn2[C@@H]2O[C@H](COP(=O)(O)O)[C@@H](O)[C@H]2O)c(=O)[nH]1 | GUK1 (Homo sapiens, UniProt Q16774, T83A) | binding, ITC | – | 25 °C | 104 ± 2 µM |

Excerpt of the above:
| Structure (SMILES) | target | assay | system | setting | Kd |
| --- | --- | --- | --- | --- | --- |
| [N-]=[N+]=NCC1OC(OC2C(N)CC(N)C(OC3OC(CN)C(O)C(O)C3O)C2O)C(O)C(N)C1O (stereo not drawn) | RNA with DM2 repeats | RNA binding, fluorescence titration | – | 1 h, room temperature, 12 repeat copies | 0.68 ± 0.083 µM |
| O=C1c2ccccc2C(=O)N1CCCc1nc(-c2cccc([N+](=O)[O-])c2)no1 | CDK2 with cyclin A | – | – | – | > 100 µM |
| COc1cc([N+](=O)[O-])ccc1N1C(=O)C2C3C=CC(C)(O3)C2C1=O (stereo not drawn) | PPIA | HDX MALDI-MS | – | – | 4 µM |
